Assay results pooled from the literature.
Parts stem from different laboratories: compare values within a part only.

Series 1
Target: Histone acetyltransferase KAT6A, both winged helices, GST fusion (KAT6A, Homo sapiens, UniProt Q92794, residues 1-181)
Technique: protein binding microarray
Form: double-stranded DNA, one strand shown
Matrix: in vitro
Tested at: not given
Notes: 8-mer, flanks averaged, mean of 2 arrays, mostly near background
Reference: not given
Direction: higher = stronger binding
Construct (chain): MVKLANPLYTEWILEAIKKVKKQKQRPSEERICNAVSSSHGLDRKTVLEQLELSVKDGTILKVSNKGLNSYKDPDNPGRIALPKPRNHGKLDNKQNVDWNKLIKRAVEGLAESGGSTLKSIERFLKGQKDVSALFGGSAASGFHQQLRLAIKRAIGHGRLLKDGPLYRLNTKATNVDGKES
`AAGGAACA` gave an E-score of -0.124.
`CTGCTGTA` gave an E-score of -0.0867.
`ATTTAACG` gave an E-score of 0.192.
The E-score of `TAGCTTCA` is reported as -0.0785.
The E-score of `CCCCTAGG` is reported as -0.265.
`GCCCACCC` gave an E-score of 0.0183.
The E-score of `TACGTGGA` is reported as 0.0901.
With `AAAATGAA` the E-score was -0.0589.
For `ATCCGAAT`, the E-score was -0.00203.
With `GGTATAGA` the E-score was -0.0594.
`CATTTTGA` gave an E-score of -0.0263.
With `ACATTTGC` the E-score was -0.0561.
The E-score of `GCGGGTAA` is reported as 0.254.
The E-score of `CGGGTATC` is reported as 0.197.
With `AACAAGAA` the E-score was -0.156.
`ACAGTAAA` has an E-score of -0.109.
With `ATTATTAG` the E-score was 0.0906.
With `CTAACCTA` the E-score was -0.135.
The E-score of `GTGCTAGA` is reported as -0.229.
With `AAGAATTC` the E-score was -0.0634.
`AAGTATAT` gave an E-score of -0.0602.
`GAAGTAGC` gave an E-score of -0.0402.
With `AGGAGGCA` the E-score was -0.163.
`GAACGCGA` has an E-score of 0.0891.
`ATTGCGAA` has an E-score of 0.0973.

Series 2
Target: Interferon regulatory factor 3, full length, phosphomimetic (IRF3, Homo sapiens, UniProt Q14653, residues 1-427, S386D/S396D/S398D/S402D/T404D/S405D)
Chain of UniProt Q14653 (whole entry, unmodified, looked up): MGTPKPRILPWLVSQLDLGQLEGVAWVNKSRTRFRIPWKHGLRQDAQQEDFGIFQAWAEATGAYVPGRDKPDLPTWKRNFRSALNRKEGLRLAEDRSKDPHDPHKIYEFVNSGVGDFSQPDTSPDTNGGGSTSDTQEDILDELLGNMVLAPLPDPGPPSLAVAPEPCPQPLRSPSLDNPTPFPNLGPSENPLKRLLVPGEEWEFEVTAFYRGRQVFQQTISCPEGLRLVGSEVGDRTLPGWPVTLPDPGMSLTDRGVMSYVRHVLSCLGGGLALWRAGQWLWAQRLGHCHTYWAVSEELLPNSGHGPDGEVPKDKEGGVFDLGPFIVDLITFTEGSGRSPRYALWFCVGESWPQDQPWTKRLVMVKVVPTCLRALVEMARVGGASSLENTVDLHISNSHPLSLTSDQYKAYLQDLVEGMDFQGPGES
Technique: protein-binding microarray
Form: double-stranded DNA, one strand shown
Matrix: in vitro
Tested at: 2540 nM top
Notes: 60-bp whole probe
Together with: salmon DNA 0.4 mg/ml
Reference: random background probes
Direction: higher = stronger binding
All sequences stand within: GCCTAGCAC … GTCTTGATTCGCTTGACGCTGCTG
Under “fitted relative affinity”, `TCAACTCCAGTTCTGGGACTGTGCTAG` is recorded as 0.19 z-score.
`AAGTTTTTCATTTTTTTTCAGTGCTAG` — result for “fitted relative affinity”: 1.45 z-score.
For `TTCTTTTCCATTTTGTGTTTGTGCTAG`, “fitted relative affinity” read 4.16 z-score.
Under “fitted relative affinity”, `TTTTTGGATGCTGGAAAAATGTGCTAG` is recorded as 0.791 z-score.
`TTAGGTATCGGTATCGGTAAGTGCTAG` — result for “fitted relative affinity”: 5.26 z-score.
`GACGGTTTCGTTTCCCTGACGTGCTAG`: “fitted relative affinity” 8.25 z-score.
Under “fitted relative affinity”, `GACAACTGATATCAAAGGGAGTGCTAG` is recorded as 0.113 z-score.
`GACGGTTTCGGACTGGGGTCGTGCTAG`: “fitted relative affinity” 4.41 z-score.
`TCATATATAATATATATTACTGTGCTA` — result for “fitted relative affinity”: 0.673 z-score.
`AGACTTCTCCATTTTTCTAGGTGCTAG`: “fitted relative affinity” 0.957 z-score.
Under “fitted relative affinity”, `TTAGGTTTTGGACTGGGTTAGTGCTAG` is recorded as 0.578 z-score.
`TTGGGTCTCGGTTTCGGTTAGTGCTAG`: “fitted relative affinity” 4.77 z-score.
Under “fitted relative affinity”, `TCATGTATTTGTCCCTAACTGTGCTAG` is recorded as 0.621 z-score.
`TGCATTCCCTTTCTCAACCTGTGCTAG` — result for “fitted relative affinity”: 4.94 z-score.

Series 3
Target: RING finger protein unkempt homolog, zinc fingers 1-6, GST-SBP tag (UNK, Homo sapiens, UniProt Q9C0B0, residues 30-357)
Technique: RNA Bind-n-Seq
Form: RNA
Matrix: in vitro
Tested at: not given
Notes: RNA with constant flanks, human-mouse chimeric sites, ends assumed
Reference: input RNA pool
Direction: higher = stronger binding
Construct (chain): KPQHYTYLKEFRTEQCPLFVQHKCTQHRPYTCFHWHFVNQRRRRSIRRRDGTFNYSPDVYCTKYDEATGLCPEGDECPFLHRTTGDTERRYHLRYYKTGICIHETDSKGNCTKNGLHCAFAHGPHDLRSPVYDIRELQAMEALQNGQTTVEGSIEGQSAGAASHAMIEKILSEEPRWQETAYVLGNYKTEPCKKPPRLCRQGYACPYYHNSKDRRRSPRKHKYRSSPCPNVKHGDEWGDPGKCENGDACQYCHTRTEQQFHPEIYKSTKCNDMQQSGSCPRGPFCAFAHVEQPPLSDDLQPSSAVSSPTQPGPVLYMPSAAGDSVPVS
The bound/input enrichment of `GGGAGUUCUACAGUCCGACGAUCUGACAAGGGCACUGCAGAGCCAUGCCUUUCCUUGACAUACAGAAAAAGUUCGGCCUUAGCCUGGACCGGCACUUUAUGUUCCUAAGCGCAGAACAGCCCUAUAAGAACGCCGCUCGGUGCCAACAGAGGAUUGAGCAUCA` is reported as 0.0905 ratio.
For `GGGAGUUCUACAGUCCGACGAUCAAAGUGAUGACUAUGUUUGUCCAACGACAGGUAUUUUCGGAGAGCAAGGAUGAGAUUGCGUUAGUCCUCUAUGGCACAGAUGGCACUGAUAAUGCCCUUGCUGGCAAGGAUCAGUAUCAGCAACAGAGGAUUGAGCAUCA`, the bound/input enrichment was 0.13 ratio.
With `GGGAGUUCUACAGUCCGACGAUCCAGGGCAUCAUCUCUCGAGCUGUUAAACACCUGUUCAAGAGUAUUGAUGAGAAAAAGACCUCAGCGAUUAAAAACGGGCUGCCCCCUCCUGAAUUCAAAGUGAAUGCCCAAUUCUUAGAGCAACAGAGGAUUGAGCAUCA` the bound/input enrichment was 0.648 ratio.
For `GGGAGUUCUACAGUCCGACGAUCUACUACUGAAUCUGUGAUAUUGGCAAUUAUUAUUAUGGCCAGGGUCAUCCCAUGAAGCCUCAUAGAAUCCGGAUGACUCAUAACUUGCUGCUAAAUUAUGGUUUAUACCGAAAAAUGGAACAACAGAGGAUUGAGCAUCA`, the bound/input enrichment was 0.184 ratio.
The bound/input enrichment of `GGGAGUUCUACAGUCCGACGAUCAAAGAGUGGAUAGAAUGUGCACACGGGAUCGGUGGGACCCGGGCGAAGAAAGAGUGCAAGAUAGAGUUCGAUGACUUCGAAGAGUGCUUGCUUCGGUACAAAACGAUGAGGCGAAUGCAUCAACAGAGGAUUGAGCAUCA` is reported as 0.275 ratio.
`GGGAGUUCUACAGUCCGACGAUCCCCCAAUUACCAUCUGUGGUCUGGAACUGCACUCUCUUUUUUAAAAAACAUGUAUACAUUUUAGGGCUGUAGAUUUAUUUUCCUGGUUUCUUUUCCAAUUGCUGACUUUUGAGCACAGAACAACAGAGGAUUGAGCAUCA` has a bound/input enrichment of 1.91 ratio.

Series 4
Target: Prothrombin, mature alpha-thrombin (F2, Homo sapiens, UniProt P00734)
Technique: aptamer microarray, sandwich
Form: DNA with 2'F-ANA
Matrix: in vitro
Tested at: 200 nM
Notes: whole 15-mer aptamer, many near background
Together with: Cy3 exosite-II aptamer, 400 nM
Direction: higher = stronger binding
Sequence: GGTTGGTGTGGTTGG
Under “mean fluorescence intensity”, `2'F-ANA at 1 4 5 8 9 12 14` is recorded as 51 a.u.
Under “mean fluorescence intensity”, `2'F-ANA at 4 5 7 10 11 12 14` is recorded as 45.3 a.u.
`2'F-ANA at 1 3 4 5 6 7 8 11 12` — result for “mean fluorescence intensity”: 105 a.u.
Under “mean fluorescence intensity”, `2'F-ANA at 1 4 5 6 7 8 11 13` is recorded as 51.4 a.u.
For `2'F-ANA at 2 5 6 7 8 9 10 12 13 14 15`, “mean fluorescence intensity” read 46.9 a.u.
For `2'F-ANA at 3 4 6 7 10 11 13 14`, “mean fluorescence intensity” read 167 a.u.
Under “mean fluorescence intensity”, `2'F-ANA at 4 5 6 7 9` is recorded as 88.2 a.u.
`2'F-ANA at 2 6 8 9 10 13`: “mean fluorescence intensity” 99.7 a.u.
Under “mean fluorescence intensity”, `2'F-ANA at 1 2 3 6 7 10 12 13 14` is recorded as 54.7 a.u.
For `2'F-ANA at 1 4 5 6 8 9 14`, “mean fluorescence intensity” read 47.7 a.u.
`2'F-ANA at 1 2 3 5 6 7 8 9 11 12 13`: “mean fluorescence intensity” 206 a.u.
`2'F-ANA at 1 3 5 6 7 11 13 14 15` — result for “mean fluorescence intensity”: 100 a.u.
For `2'F-ANA at 1 2 4 5 6 7 8 13 14 15`, “mean fluorescence intensity” read 60.4 a.u.
For `2'F-ANA at 2 3 5 7 8 9`, “mean fluorescence intensity” read 113 a.u.

Series 5
Target: Fragile X messenger ribonucleoprotein 1, C-terminal low-complexity region (Fmr1, Mus musculus, UniProt P35922)
Technique: RNA Bind-n-Seq
Form: RNA
Matrix: in vitro
Tested at: 200 nM
Notes: whole 134-nt RNA, ends assumed
Together with: 150 mM KCl
Reference: input library
Direction: higher = stronger binding
`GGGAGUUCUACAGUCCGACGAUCUGGCCCUGGUGGCAUGCGGGGAGGAAGAGGUGGCCUCAUGGAUCGUGGUGGUACCGGUGGAAUGUUCAGAGGUGGCCGUGGUGGAGACAGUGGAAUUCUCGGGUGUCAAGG` has a log2 enrichment of 0.0875.
With `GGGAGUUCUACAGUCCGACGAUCUUAAGAAUAUUUAGAUAUUUGUAAAAGAAUUUGAAUGAUUUAUUUAAUAUAACGUUUAUUUUAUUAGCUCUAUUCCAAUUGAUUACAACCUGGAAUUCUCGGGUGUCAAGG` the log2 enrichment was -1.3.
`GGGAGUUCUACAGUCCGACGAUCCACAGACAACACGCACCCACACAGACACAGAGGGAAGGGGUUGGGAUGGGGACAGGGUGCACAGCAGGGCGGGGUAGGACGCCAGCCCCUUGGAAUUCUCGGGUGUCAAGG` gave a log2 enrichment of 1.19.
`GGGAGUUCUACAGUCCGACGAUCUGGCCCUGGUGGCAUGCGGGGAGGAAGAGGUGGCCUCAUGGAUCGUGGUGGUCCCGGUGGAAUGUUCAGAGGUGGCCGUGGUGCAGACAGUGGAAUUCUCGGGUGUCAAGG` has a log2 enrichment of 0.108.
With `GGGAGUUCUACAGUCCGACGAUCUCAAGUCCUGUGCUACACAUCGUAUGUACCGAAUCGGGUUGGGGUUGGGUUGGGAAAGUAUUAUGUUACGCCGUUCGGAUCUGCACUUCCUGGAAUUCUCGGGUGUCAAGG` the log2 enrichment was 1.33.
`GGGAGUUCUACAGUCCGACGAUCUCCUCAAGUCCUGUGCUACACAUCGUAUGUACCGAAUCGGGGAGGAGGAGGGAAAGUAUUAUGUUACGCCGUUCGGAUCUGCACUUCCAGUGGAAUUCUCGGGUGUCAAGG` gave a log2 enrichment of 0.394.
For `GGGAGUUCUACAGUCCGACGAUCCAAGUCCUGUGCUACACAUCGUAUGUACCGAAUCGGUUUUUGGUGGUUUUUUUGGAAAGUAUUAUGUUACGCCGUUCGGAUCUGCACUUCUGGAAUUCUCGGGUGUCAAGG`, the log2 enrichment was -0.692.
`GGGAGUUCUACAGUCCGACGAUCGGGUCUGUUGCAAAUAAAUUCUAUGUUCACAAUGAUAUCUUCAGAUACCAAGAUGAGGUCUUUGGUGGGUUUGUCACUGAGCCUCAGGAGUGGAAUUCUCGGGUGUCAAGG` gave a log2 enrichment of -1.42.
